Published values pooled from the literature.
Parts stem from different laboratories: compare values within a part only.

Series 1
Target: Sal-like protein 4, full length isoform B (SALL4, Homo sapiens, UniProt Q9UJQ4-2, residues 1-616)
Technique: universal PBM
Molecule type: double-stranded DNA, one strand shown
Medium: in vitro
Tested at: not given
Setting: 8-mer, flanks averaged, mean of replicates
Reading: higher = stronger binding
Residues (chain): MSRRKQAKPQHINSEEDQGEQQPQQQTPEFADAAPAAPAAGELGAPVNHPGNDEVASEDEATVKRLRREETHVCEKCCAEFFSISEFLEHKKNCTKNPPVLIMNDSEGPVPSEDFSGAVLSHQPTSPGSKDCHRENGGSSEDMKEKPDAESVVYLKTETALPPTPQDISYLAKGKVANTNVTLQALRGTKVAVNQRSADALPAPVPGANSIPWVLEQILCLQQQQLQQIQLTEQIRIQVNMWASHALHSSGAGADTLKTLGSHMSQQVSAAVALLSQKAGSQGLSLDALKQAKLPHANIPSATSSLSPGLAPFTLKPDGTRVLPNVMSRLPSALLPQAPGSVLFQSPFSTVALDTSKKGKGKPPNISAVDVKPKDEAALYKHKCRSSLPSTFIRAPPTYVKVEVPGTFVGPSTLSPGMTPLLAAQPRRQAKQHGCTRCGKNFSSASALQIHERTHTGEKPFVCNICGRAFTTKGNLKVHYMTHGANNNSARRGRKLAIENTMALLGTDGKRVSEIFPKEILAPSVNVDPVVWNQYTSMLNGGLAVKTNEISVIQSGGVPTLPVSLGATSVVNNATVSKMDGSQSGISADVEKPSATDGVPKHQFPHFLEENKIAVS
Oligonucleotide	E-score
AACGAGCC	-0.0644
CTAGTAAC	0.0458
AATAGAGA	0.191
ACCTAGGC	-0.223
CCAAACGA	-0.0563
CACGCCTA	-0.011
AACGACCA	-0.0428
ACAGTGCA	-0.00513

Series 2
Target: Replicase polyprotein 1ab, main protease (rep, Severe acute respiratory syndrome coronavirus 2, UniProt P0DTD1)
Effect on: enzyme activity
Action: inhibitor
Tested at: 20 µM
Setting: hit confirmation, no DTT
Structure (SMILES)	inhibition
Oc1ccc(C2CNCCc3c2cc(O)c(O)c3Cl)cc1 (stereo not shown)	99%
S=C(S)N1CCCC1	99.5%
CCCCC/C=C\C/C=C\C/C=C\C/C=C\CCCC(=O)O	56.3%

Series 3
Cell line: HEK-293T/ACE2
Effect on: pseudovirus infection
Organism: VSV pseudotyped with SARS-CoV-2 spike
Tested at: 10 µM
Time: 16 h
Baseline: vehicle-treated
Structure (SMILES)	GFP-positive cells [%]
Cc1cc(C)cc(OCC2CNC(=O)O2)c1 (stereo not shown)	59
C#C[C@]1(O)CC[C@H]2[C@@H]3CCC4=CC(=O)CC[C@@H]4[C@H]3CC[C@@]21C	80.8
Cc1ccccc1N1C(=O)c2cc(S(N)(=O)=O)c(Cl)cc2NC1C (stereo not shown)	61
CN(C)CCn1nnnc1SCC1=C(C(=O)O)N2C(=O)[C@@H](NC(=O)Cc3csc(N)n3)[C@H]2SC1	75.1

Single results of other studies
SMILES	target	endpoint	value
Cc1c(-c2cnccn2)ssc1=S	Replicase polyprotein 1ab, nsp13 helicase (rep, Severe acute respiratory syndrome coronavirus 2, UniProt P0DTD1)	IC50	3.33 µM

Some of these lines once more (series 3):
Structure (SMILES)	GFP-positive cells [%]
Cc1cc(C)cc(OCC2CNC(=O)O2)c1 (stereo not shown)	59
